# Measurements gathered from unrelated publications.
# Each line is one published result; not all experiments were run side by side. “And” joins repeats or separate records; there may be more than shown.
# MCM6: MCM6 (Saccharomyces cerevisiae, UniProt P53091)
# UniProt P53091, sequence (whole entry, looked up): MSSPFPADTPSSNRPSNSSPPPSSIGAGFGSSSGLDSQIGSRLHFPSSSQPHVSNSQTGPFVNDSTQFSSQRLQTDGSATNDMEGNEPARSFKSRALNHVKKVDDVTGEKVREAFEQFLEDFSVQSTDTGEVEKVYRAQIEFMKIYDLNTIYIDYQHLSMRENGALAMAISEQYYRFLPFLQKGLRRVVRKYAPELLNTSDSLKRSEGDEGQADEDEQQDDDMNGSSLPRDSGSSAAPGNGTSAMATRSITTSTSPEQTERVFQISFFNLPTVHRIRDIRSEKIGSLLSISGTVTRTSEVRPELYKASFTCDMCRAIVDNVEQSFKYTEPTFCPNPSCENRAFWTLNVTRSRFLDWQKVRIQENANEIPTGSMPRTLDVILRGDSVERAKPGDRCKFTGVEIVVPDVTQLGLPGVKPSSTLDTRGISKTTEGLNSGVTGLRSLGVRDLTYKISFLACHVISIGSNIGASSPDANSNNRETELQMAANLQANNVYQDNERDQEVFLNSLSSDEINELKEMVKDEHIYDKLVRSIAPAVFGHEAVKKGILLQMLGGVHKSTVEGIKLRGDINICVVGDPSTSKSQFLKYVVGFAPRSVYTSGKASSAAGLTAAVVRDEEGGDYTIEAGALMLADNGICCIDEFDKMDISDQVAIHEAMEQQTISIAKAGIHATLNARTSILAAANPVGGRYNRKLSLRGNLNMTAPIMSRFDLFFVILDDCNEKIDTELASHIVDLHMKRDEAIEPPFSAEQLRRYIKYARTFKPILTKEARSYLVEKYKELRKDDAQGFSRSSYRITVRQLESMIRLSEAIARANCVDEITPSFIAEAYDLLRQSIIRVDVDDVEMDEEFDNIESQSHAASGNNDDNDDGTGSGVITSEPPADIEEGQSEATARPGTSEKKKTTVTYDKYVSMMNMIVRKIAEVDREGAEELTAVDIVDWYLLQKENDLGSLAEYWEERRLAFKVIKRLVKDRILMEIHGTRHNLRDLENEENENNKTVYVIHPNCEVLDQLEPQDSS
# SMC5: SMC5 (Saccharomyces cerevisiae, UniProt Q08204)
# UniProt Q08204, sequence (whole entry, looked up): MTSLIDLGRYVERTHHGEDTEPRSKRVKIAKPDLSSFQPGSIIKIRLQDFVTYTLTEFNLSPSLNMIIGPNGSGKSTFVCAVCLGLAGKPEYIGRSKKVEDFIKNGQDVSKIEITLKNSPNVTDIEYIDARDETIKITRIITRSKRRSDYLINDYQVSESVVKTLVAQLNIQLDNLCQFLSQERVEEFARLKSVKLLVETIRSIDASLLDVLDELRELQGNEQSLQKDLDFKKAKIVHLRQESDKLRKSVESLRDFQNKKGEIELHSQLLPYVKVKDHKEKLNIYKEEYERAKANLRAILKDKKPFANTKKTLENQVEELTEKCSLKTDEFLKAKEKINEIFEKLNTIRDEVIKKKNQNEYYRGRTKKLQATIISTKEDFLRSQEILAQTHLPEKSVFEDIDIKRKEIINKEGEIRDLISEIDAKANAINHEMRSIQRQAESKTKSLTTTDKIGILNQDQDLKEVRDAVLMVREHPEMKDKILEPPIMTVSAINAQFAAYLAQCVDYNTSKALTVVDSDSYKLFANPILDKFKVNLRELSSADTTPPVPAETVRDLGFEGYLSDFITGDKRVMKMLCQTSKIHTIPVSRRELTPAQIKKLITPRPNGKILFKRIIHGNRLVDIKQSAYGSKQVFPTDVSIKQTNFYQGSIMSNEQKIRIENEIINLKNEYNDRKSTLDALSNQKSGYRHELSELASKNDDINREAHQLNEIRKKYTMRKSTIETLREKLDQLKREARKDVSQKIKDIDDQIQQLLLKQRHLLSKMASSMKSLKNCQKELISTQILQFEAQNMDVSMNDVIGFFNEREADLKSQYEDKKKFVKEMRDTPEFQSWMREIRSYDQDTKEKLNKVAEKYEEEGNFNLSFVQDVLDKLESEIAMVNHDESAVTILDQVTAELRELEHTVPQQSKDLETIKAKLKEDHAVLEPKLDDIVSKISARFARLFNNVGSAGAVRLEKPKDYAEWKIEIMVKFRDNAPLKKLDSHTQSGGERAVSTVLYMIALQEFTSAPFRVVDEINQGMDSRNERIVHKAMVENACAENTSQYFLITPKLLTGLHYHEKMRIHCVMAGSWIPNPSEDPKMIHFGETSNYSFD
# NSE1: NSE1 (Saccharomyces cerevisiae, UniProt Q07913)
# PSF1: PSF1 (Saccharomyces cerevisiae, UniProt Q12488)
# UniProt P48067, sequence (whole entry, looked up): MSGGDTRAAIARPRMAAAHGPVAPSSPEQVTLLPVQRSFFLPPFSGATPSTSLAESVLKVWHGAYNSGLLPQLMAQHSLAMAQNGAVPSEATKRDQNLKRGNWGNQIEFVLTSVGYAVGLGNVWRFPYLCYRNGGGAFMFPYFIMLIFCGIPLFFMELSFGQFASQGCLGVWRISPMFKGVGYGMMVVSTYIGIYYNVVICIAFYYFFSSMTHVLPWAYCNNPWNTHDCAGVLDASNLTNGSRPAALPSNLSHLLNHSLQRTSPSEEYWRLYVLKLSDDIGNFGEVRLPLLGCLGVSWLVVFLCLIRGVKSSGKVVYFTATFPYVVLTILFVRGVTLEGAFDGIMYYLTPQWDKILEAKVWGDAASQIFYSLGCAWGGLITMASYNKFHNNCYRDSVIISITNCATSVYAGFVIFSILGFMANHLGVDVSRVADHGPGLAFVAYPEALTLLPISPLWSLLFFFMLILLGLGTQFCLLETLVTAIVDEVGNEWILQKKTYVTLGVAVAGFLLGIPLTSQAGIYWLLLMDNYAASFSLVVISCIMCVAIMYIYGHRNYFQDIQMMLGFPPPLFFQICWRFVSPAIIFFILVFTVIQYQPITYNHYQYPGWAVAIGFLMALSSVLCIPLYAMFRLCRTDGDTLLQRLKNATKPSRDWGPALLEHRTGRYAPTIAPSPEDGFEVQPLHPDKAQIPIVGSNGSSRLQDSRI
# UniProt P29496, sequence (whole entry, looked up): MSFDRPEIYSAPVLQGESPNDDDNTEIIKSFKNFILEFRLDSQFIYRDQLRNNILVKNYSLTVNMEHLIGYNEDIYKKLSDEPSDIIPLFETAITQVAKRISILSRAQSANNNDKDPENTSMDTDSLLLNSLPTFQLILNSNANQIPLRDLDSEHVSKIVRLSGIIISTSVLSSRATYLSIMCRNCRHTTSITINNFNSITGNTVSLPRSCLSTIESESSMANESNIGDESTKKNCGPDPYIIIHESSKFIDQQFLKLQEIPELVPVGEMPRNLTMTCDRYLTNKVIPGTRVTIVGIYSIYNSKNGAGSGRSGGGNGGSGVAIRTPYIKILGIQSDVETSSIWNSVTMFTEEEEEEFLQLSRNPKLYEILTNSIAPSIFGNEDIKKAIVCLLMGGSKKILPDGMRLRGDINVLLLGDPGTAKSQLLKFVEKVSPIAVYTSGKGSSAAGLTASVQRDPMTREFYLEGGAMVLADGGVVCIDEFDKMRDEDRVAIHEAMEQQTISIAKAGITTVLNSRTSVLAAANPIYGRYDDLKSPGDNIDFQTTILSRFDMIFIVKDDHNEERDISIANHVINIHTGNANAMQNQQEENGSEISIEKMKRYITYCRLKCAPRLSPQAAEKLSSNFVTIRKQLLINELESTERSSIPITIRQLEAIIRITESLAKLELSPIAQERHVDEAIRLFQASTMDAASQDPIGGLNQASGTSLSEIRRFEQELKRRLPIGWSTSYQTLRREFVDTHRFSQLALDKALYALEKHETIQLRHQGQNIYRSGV
# UniProt Q12488, sequence (whole entry, looked up): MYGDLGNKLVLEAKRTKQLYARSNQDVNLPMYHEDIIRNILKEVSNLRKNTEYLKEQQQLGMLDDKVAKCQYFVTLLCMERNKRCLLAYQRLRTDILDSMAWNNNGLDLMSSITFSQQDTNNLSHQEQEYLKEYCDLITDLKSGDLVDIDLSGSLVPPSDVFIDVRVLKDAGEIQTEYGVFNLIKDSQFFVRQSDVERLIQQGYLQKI
# UniProt P24279, sequence (whole entry, looked up): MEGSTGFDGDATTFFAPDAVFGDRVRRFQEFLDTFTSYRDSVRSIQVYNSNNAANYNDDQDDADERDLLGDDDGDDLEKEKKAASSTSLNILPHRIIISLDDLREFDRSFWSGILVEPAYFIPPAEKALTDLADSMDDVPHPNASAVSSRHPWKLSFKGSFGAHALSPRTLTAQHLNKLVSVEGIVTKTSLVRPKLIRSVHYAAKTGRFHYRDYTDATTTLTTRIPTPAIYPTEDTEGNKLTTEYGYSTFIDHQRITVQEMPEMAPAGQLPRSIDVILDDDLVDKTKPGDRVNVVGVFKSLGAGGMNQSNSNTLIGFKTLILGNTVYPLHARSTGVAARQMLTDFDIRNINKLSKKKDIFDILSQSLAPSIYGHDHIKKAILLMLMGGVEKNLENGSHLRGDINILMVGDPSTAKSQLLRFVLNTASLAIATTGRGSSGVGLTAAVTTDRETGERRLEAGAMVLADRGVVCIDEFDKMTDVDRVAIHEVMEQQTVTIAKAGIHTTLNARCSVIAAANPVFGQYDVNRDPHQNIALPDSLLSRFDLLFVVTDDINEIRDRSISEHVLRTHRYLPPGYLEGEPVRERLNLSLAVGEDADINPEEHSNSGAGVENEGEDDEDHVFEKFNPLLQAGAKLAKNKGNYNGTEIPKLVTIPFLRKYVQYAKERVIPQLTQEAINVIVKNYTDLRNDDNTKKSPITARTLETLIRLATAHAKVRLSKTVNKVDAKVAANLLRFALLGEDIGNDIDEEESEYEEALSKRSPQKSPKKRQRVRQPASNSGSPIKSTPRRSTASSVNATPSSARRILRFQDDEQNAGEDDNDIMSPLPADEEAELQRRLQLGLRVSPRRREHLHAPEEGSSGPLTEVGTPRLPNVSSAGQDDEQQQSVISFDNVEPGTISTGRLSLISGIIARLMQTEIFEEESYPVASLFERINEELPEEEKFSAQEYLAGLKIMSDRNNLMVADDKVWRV
Substance,target or system,test,system,setting,scale,endpoint,result
"MCM4 (Saccharomyces cerevisiae, UniProt P30665)",MCM6,cross-linking MS,,hits only,,interaction screen,cross-linked
"MMS21 (Saccharomyces cerevisiae, UniProt P38632)",SMC5,cross-linking MS,,hits only,,interaction screen,cross-linked
"CDC6 (Saccharomyces cerevisiae, UniProt P09119)","ORC6 (Saccharomyces cerevisiae, UniProt P38826)",cross-linking MS,,hits only,,interaction screen,cross-linked
"ALB (Homo sapiens, UniProt P02768)","EFL1 (Homo sapiens, UniProt Q7Z2Z2)",cross-linking MS,,with: DSSO,,cross-linked residues,K223 to K857
"MCM3 (Saccharomyces cerevisiae, UniProt P24279)","ORC2 (Saccharomyces cerevisiae, UniProt P32833)",cross-linking MS,,hits only,,interaction screen,cross-linked
GSGAGSETKM,human MAGI1-2/6 PDZ construct (MBP fusion),surface plasmon resonance,peptide,concentration not given,higher = stronger binding,normalised SPR binding response,0 normalised RU
"KRE29 (Saccharomyces cerevisiae, UniProt P40026)",SMC5,cross-linking MS,,hits only,,interaction screen,cross-linked
11-deoxycorticosterone,,stopped-flow global kinetic fitting,,"4-state closed model (best), 10-fold adrenodoxin excess, with: substrate binding k3",,rate constant,1.65 min⁻¹
"HHF1 (Saccharomyces cerevisiae, UniProt P02309)","HTA1 (Saccharomyces cerevisiae, UniProt P04911)",cross-linking MS,,hits only,,interaction screen,cross-linked
"H2AC11 (Homo sapiens, UniProt P0C0S8)","H3-3A (Homo sapiens, UniProt P84243)",cross-linking MS,,hits only,,interaction screen,cross-linked
"MCM2 (Saccharomyces cerevisiae, UniProt P29469)",MCM6,cross-linking MS,,hits only,,interaction screen,cross-linked
GSGAGKETEC,human SCRIB PDZ3-4 tandem (MBP fusion),surface plasmon resonance,peptide,concentration not given,higher = stronger binding,normalised SPR binding response,0 normalised RU
"MCM2 (Saccharomyces cerevisiae, UniProt P29469)","MCM5 (Saccharomyces cerevisiae, UniProt P29496)",cross-linking MS,,hits only,,interaction screen,cross-linked
"ORC5 (Saccharomyces cerevisiae, UniProt P50874)","ORC4 (Saccharomyces cerevisiae, UniProt P54791)",cross-linking MS,,hits only,,interaction screen,cross-linked
"NSE5 (Saccharomyces cerevisiae, UniProt Q03718)",NSE1,cross-linking MS,,hits only,,interaction screen,cross-linked
"PSF3 (Saccharomyces cerevisiae, UniProt Q12146)",PSF1,cross-linking MS,,hits only,,interaction screen,cross-linked
colistin,Pseudomonas aeruginosa,,clinical isolate RKI 93/12,,,MIC,≤ 1 µg/mL
"MYL12A (Homo sapiens, UniProt P19105)","MYH9 (Homo sapiens, UniProt P35579)",cross-linking MS,,hits only,,interaction screen,cross-linked
"NSE4 (Saccharomyces cerevisiae, UniProt P43124)",NSE1,cross-linking MS,,hits only,,interaction screen,cross-linked
"MCM5 (Saccharomyces cerevisiae, UniProt P29496)","MCM7 (Saccharomyces cerevisiae, UniProt P38132)",cross-linking MS,,hits only,,interaction screen,cross-linked
"TUBA1A (Sus scrofa, UniProt P02550)","TUBB (Sus scrofa, UniProt P02554)",cross-linking MS,,hits only,,interaction screen,cross-linked
"MCM3 (Saccharomyces cerevisiae, UniProt P24279)",PSF1,cross-linking MS,,hits only,,interaction screen,cross-linked
"KRT8 (Homo sapiens, UniProt P05787)","KRT7 (Homo sapiens, UniProt P08729)",cross-linking MS,,hits only,,interaction screen,cross-linked
"MCM5 (Saccharomyces cerevisiae, UniProt P29496)",MCM6,cross-linking MS,,hits only,,interaction screen,cross-linked
Peginesatide,UT7/EPO,"RT-qPCR, item: IER3",,"concentration not given, 90 min, normalized to HPRT1",baseline: vehicle,mRNA level,4.4 fold
methyl-β-cyclodextrin,"SLC6A9 (Homo sapiens, UniProt P48067)","transport activity, [3H]glycine uptake",,"3.5 mg/mL, 1 min, with: glycine 75 µM",higher = more transport,glycine uptake rate,22.5 a.u. and 27.5 a.u. and 28.6 a.u. and 28.3 a.u.
"RPT6 (Saccharomyces cerevisiae, UniProt Q01939)","MLP1 (Saccharomyces cerevisiae, UniProt Q02455)",cross-linking MS,,hits only,,interaction screen,cross-linked
"H2AZ1 (Homo sapiens, UniProt P0C0S5)","Histone H3.1 (Homo sapiens, UniProt P68431)",cross-linking MS,,hits only,,interaction screen,cross-linked
"H2BC18 (Homo sapiens, UniProt Q5QNW6)","H2AC18 (Homo sapiens, UniProt Q6FI13)",cross-linking MS,,hits only,,interaction screen,cross-linked
"FGA (Homo sapiens, UniProt P02671)","MIER2 (Homo sapiens, UniProt Q8N344)",cross-linking MS,,with: DSSO,,cross-linked residues,K238 to K195

# Some of these lines once more:
Substance,target or system,test,system,setting,scale,endpoint,result
"MCM5 (Saccharomyces cerevisiae, UniProt P29496)","MCM7 (Saccharomyces cerevisiae, UniProt P38132)",cross-linking MS,,hits only,,interaction screen,cross-linked
"TUBA1A (Sus scrofa, UniProt P02550)","TUBB (Sus scrofa, UniProt P02554)",cross-linking MS,,hits only,,interaction screen,cross-linked
"MCM3 (Saccharomyces cerevisiae, UniProt P24279)",PSF1,cross-linking MS,,hits only,,interaction screen,cross-linked
